Measured values from different studies.
Parts stem from different laboratories: compare values within a part only.

Series 1
Target: Sal-like protein 4, full length isoform B (SALL4, Homo sapiens, UniProt Q9UJQ4-2, residues 1-616)
Method: universal PBM
Molecule type: double-stranded DNA, one strand shown
Medium: in vitro
Tested at: not given
Setting: 8-mer, flanks averaged, mean of replicates
Direction: higher = stronger binding
Construct (chain): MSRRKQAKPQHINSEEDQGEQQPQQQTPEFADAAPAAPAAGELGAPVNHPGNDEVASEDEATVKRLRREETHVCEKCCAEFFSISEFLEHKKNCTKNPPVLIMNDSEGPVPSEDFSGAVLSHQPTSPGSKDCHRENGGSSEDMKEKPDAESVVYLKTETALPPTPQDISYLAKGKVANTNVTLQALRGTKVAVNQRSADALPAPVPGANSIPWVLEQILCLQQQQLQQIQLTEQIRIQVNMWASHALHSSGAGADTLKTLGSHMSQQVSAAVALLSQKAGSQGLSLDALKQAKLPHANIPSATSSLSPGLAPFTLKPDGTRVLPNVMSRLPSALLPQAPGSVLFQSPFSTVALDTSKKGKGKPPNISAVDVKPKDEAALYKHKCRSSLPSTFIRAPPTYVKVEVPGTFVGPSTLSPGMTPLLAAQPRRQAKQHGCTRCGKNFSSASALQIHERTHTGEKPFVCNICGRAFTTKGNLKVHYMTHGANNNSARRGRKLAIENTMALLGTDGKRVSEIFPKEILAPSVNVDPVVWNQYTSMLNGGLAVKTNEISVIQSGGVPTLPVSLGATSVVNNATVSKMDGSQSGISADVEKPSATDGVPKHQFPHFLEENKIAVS
Strand | E-score
CCACTCAG | -0.0929
CCGGGAAG | -0.238
CAGGAGAC | -0.176
CGGTAACA | 0.0748
GGTTAGCA | -0.0838
GGTTCGAC | -0.151
ATTGCTCG | -0.0206
CAGCAATG | 0.0458
ACGAGGCA | -0.0224
AATTAGAT | 0.267
GGCATCAC | -0.279
TCATACAA | 0.278
GCGGGCAA | -0.22
GTACATCA | 0.159
AGAGCCCA | -0.148
CGGTAGTA | 0.105
TTAAGAAA | 0.176
GTGGTATA | 0.146
ATCCGGGC | -0.396
ACCCAATC | -0.052
GGATTCTA | 0.0647
CGAAGCCA | -0.0989
CTCGAGTC | -0.143
CAGACTAC | -0.147

Series 2
Target: RNA binding protein fox-1 homolog 2, RRM domain, GST-SBP tag (RBFOX2, Homo sapiens, UniProt O43251-10, residues 100-194)
Method: RNA Bind-n-Seq
Molecule type: RNA
Medium: in vitro
Tested at: 365 nM
Setting: natural RNA segment, single round, ends assumed
Reference: no-protein control
Direction: higher = stronger binding
Shared flanks, not repeated: GGGAGUUCUACAGUCCGACGAUC … UGGAAUUCUCGGGUGCCAA
Construct (chain): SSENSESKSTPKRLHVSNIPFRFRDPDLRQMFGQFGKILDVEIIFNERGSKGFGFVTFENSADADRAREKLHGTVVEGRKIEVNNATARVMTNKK
Strand | RBNS enrichment (R)
AGGGAGCCACUGUCGCCGCAGCACACCAGGAUUGGGGCUCUCAGGCUGUGCUGCCCUAGACCCGCCACACCAAGCCAUCCGCCCCUCACAGACCCUACAAGACGAUGUUA | 0.544
AUGUAUCUUCACGUUGUAAAUAUGUUUUGUAGAGUGAAGCCAUGGGAAGCCAUGUGUAACAGAGCUUAGACAUCUGAAACUAAUCAAUGCUGAGGUGGCUAAAUACCUAG | 0.34
ACUUCCCUCCCCCUCUGUCAACUGCUGUGAAUGCUGUAUGGUGUGUGUUCUCCUCUGUUACUGAUCUGGAAGUGUGGGAACGUGAACUGAAGCUGAUGGGCUGCGAACAU | 1.61
GGAGCAGGGUUUCCUCAGAUGAGGACUGCAUUCUUUGAAAACAAAGAAUGUCGCCAAGGAAGAAACCUCACGCCAUGCUGUAGUGUUUCCUGUAAUCACACGAGCACAUU | 0.276
CUGUGUCCCCCGUAGUAUCCCCGCAGCCCAGGCCGACGAGGCCCACCCCUGGACUUGAUCAGUAUUCAACCUUGUCUCCUGUCCCCAAUGUCGUAAGCACAAUUAGACUU | 0.365
AAGACGCCAAUCGCCCGUACUGAGCGCCGGCGGGAGCGUCCCCCGGGGGAGACCAGGACUCGCACAGGGCAGGAUGCUGAACGGGCUACAUUAAAAAACAAACCUCUCUC | 0.423
UGUGGCCCUUCCCCAGAGGAAUUGUGGAGACUGUCCCAUGGAACAAACCCUCAGGCACCAGCACAGGGCUCUGGGUGACUCAGUAAAACUAACGUUUGUCUCUGACAAGA | 0.29
UCACUCCUCACUUGAGCUGCCUGGACUCGAGGAGCAGAGACUGGACAACCCAGGCGUCAGAAGCCUGUUUCUUACUGUCUCCCCAGAGACUCAAGUGUCUUCUGCUCCCA | 0.691
GAGCCUCCAAGCUGAUCAAGCAAUUCUUUCCUGUAAUCUGAUAGGAGGCAGCAAGCAAGGACAUCCUCCAGUGGUUUCCUGGAGCCACCGGCUCACUGUCUGCAGCACCU | 0.266
CCAUUCCCUCCUGCUGCGGUUUCUCUUGGCCUGUCCUCACUGGAAAAACAGUCUCCAUCUCCUCAAAAUAGUUGCUGACUCCCUGCACCCAAGGGGCCUCUCCAUGCCUU | 0.554
UGAGACAGAGAUCGUGAAAGAAGAAGUCGUGAGCCUGCGGUCCAGUCAGUCCAGCUCGGGACCGAUGCCUGCUGUGCCUUCCUGCUGAGGGACACCUGCUUAUUUUCCCC | 0.616
UAGUAAGUCUAAGUCAAGCAAGACUUUGUGAAUUUGUGACAAGUUUGCACUUACAAAAUCAUGUAAAUAUGUCACAUUUUGUUUAACAUUAUUUUUCCAAGUGUUUAGGU | 0.401

Series 3
Target: UBE2N UBC core domain (UniProt P61088)
Sequence of UniProt P61088 (whole entry, looked up): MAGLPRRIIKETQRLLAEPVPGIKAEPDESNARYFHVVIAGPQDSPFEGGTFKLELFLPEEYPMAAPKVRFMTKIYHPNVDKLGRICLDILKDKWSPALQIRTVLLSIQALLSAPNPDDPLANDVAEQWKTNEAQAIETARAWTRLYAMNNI
Method: yeast two-hybrid
Medium: yeast
Setting: mostly zero background
Reference: not given
Direction: higher = stronger interaction
B1: CBLL1 RING domain (UniProt Q75N03); chain GEKDDTPVHFCDKCGLPIKIYGRMIPCKHVFCYDCAILHEKKGDKMCPGCSDPVQRIEQCT
B2: SHPRH RING domain (UniProt Q149N8); chain KTSGGVNPEPCPICARQLGKQWAVLTCGHCFCNECISIIIEQYSVGSHRSSIKCAICRQTTSHKEISY
B3: NHLRC1 RING domain (UniProt Q6VVB1); chain MREAEISLLECKVCFEKFGHRQQRRPRNLSCGHVVCLACVAALAHPRTLALECPFCRRACRGCDTSD
B4: TRIM47 RING domain (UniProt Q96LD4); chain MDGSGPFSCPICLEPLREPVTLPCGHNFCLACLGALWPHRGASGAGGPGGAARCPLCQEPFPDGLQLR
B5: TRIM2 RING domain (UniProt Q9C040); chain VRQIDKQFLICSICLERYKNPKVLPCLHTFCERCLQNYIPAHSLTLSCPVCRQTSILPEKGV
B6: RNF10 RING domain (UniProt Q8N5U6); chain VRICSHEVPSCPICLYPPTAAKITRCGHIFCWACILHYLSLSEKTWSKCPICYSSVHKKDLKS
Molecule | lacZ reporter activity
B1 (CBLL1 RING domain) | 0
MEEMEEELKCPVCGSFYREPIILPCSHNLCQACARNILVQTPESESPQSHRAAGSGVSDY (TRIM9 RING domain (UniProt Q9C026)) | 0
B2 (SHPRH RING domain) | 0
B3 (NHLRC1 RING domain) | 0
B4 (TRIM47 RING domain) | 0
B5 (TRIM2 RING domain) | 0
GSEEEEIPFRCFICRQAFQNPVVTKCRHYFCESCALEHFRATPRCYICDQPTGGIFNPA (RNF113B RING domain (UniProt Q8IZP6)) | 0
B6 (RNF10 RING domain) | 0

Series 4
Target: Histone acetyltransferase KAT6A, winged helix 2, GST fusion (KAT6A, Homo sapiens, UniProt Q92794, residues 85-181)
Method: protein binding microarray
Molecule type: double-stranded DNA, one strand shown
Medium: in vitro
Tested at: not given
Setting: 8-mer, flanks averaged, mean of 2 arrays, mostly near background
Reference: not given
Direction: higher = stronger binding
Construct (chain): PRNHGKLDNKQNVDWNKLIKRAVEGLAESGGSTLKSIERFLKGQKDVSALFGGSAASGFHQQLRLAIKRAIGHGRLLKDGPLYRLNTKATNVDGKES
Strand | E-score
GACAGTGC | -0.0474
ACATCTCT | -0.228
CGGTCGCC | 0.103
GGTTGATA | 0.167
CATCGGCG | 0.0566
GGTGGGGA | 0.181
AGGATGAG | -0.219
CGTCCCCA | -0.048
CCGCAAGG | 0.123
ACACTGGC | 0.00521
CAGTGGGC | 0.0923
ACTCTGCG | 0.071
AAGATAAT | -0.0137
AAAAGATC | -0.161
ACGAGTCA | -0.0995
AAATAAAG | 0.0277
TCCACACA | 0.0777
GGCACGAA | 0.159
TCAGGGGA | -0.00894
CTTAGGCA | -0.0378

Series 5
Target: Phosphate system positive regulatory protein PHO4, full length, GST-tagged (PHO4, Saccharomyces cerevisiae, UniProt P07270, residues 1-312)
Method: competition protein-binding microarray
Molecule type: double-stranded DNA, one strand shown
Medium: in vitro
Tested at: 2 µM
Setting: whole 60-bp probe, lowest competitor level
Added: Cbf1 competitor, 0.05 µM
Direction: higher = stronger binding
Shared flanks, not repeated: … GTCTTGATTCGCTTGACGCTGCTG
Construct (chain): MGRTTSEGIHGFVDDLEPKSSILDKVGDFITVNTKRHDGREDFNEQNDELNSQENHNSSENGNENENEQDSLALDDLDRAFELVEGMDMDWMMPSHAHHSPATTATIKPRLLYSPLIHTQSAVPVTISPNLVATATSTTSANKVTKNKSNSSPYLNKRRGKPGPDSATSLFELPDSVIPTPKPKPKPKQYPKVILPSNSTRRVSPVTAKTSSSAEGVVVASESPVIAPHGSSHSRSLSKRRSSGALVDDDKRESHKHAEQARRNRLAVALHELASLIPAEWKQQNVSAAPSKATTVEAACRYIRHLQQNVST
Strand | fluorescence intensity
CTTTCCCGATCTTGTCACTCGACTTTAGCACATTTG | 3980 a.u.
AAAGCGGTAATTTGATTCGTGGGTGCAGATATCTAT | 6280 a.u.
CTTCTGTAAATTTGACATGTGGGTGGACGCGCCCCG | 10100 a.u.
ACATTATGCATAGCTTACCTGATCCAAAAGTATGTA | 3860 a.u.
CTTCTGTAAATTTGACTCGTGGGTGGACGCGCCCCG | 9480 a.u.
AGTAAAAGAGAAAAACACGTGTGGAGAACTTTTCAT | 20700 a.u.
GGGAAGACCATCGACCACATGTGTGCATTGTAAAGA | 13700 a.u.
AGTTCATCGATGTAGCATGTGTACGCATTTCTAGAT | 10800 a.u.
AAAGCGGTAATTTTTCACGTGAAATCAAATATCTAT | 8800 a.u.
AAATTAGTAACGCATAACGTGTTTTCTGCGACAAGC | 7540 a.u.
TCTCTTCTTCATCACCACGATGTATCTTTTGTTTTG | 11200 a.u.
TTCACCAGCGTTCCACACGTGTCGGCCATATCGTCA | 17200 a.u.
TATTGGATGAGTATCCACATGGCTTGAACGCAAATG | 9020 a.u.
AAGAGACAAAAGGAACACGTGAAATAAGAAAGAAAA | 14200 a.u.
AAATTACTAAGTTGCCGAGTGGGTGACGCCGTATGA | 4570 a.u.
ATATACAAACTCCATCACGGGATCGATGTGGCTAAG | 6570 a.u.
TGCGCAACAACTTGTGGAGTGGGTGTATGTCTAGAA | 5060 a.u.
ACCTCAGGGTTTGTGTCTGTGATGGGTTACTCAGCC | 3790 a.u.
TGTTTCACCTAAGCAAACGTGTGGACCACAACCAAA | 9670 a.u.

Series 6
Organism: Saccharomyces cerevisiae
Effect on: peptide binding
Method: yeast competitive growth sequencing
Molecule type: peptide
Strain: cyclin F-Cln2 fusion
Tested at: concentration not given
Setting: library 1, Cln2-subtracted
Direction: direction not given
Molecule | binding score
GSALKKLFTSTGL | 1.21
GSPAKKLFTSTGL | -0.0621
ASPLKKLFTSTGL | 0.528

For quick reference, copied from above (series 5):
Strand | fluorescence intensity
ACATTATGCATAGCTTACCTGATCCAAAAGTATGTA | 3860 a.u.
AAAGCGGTAATTTTTCACGTGAAATCAAATATCTAT | 8800 a.u.
TGCGCAACAACTTGTGGAGTGGGTGTATGTCTAGAA | 5060 a.u.
ATATACAAACTCCATCACGGGATCGATGTGGCTAAG | 6570 a.u.
AAGAGACAAAAGGAACACGTGAAATAAGAAAGAAAA | 14200 a.u.
CTTCTGTAAATTTGACATGTGGGTGGACGCGCCCCG | 10100 a.u.
